Results gathered from unrelated publications.
Protocols differ between the studies behind these lines. ± marks the error that the study gave.
CDK2 with cyclin A2: Cyclin-dependent kinase 2, with cyclin A2 (CDK2, Homo sapiens, UniProt P24941)
CDK2: Cyclin-dependent kinase 2 (CDK2, Homo sapiens, UniProt P24941)
CDK2 with cyclin A1: Cyclin-dependent kinase 2, with cyclin A1 (CDK2, Homo sapiens, UniProt P24941)

SMILES	target	test	system	conditions	how to read	quantity	value
CNC(=O)c1cc(Oc2ccc(NC(=O)Nc3ccc(Cl)c(C(F)(F)F)c3)cc2)ccn1	CDK2 with cyclin A2	kinase activity, inhibitor, ADP-Glo kinase	–	0.2 nM	–	remaining activity	87.7%
C1=C/COCc2cc(ccc2OCCN2CCCC2)Nc2nccc(n2)-c2cccc(c2)COC/1	CDK2	–	–	concentration not given	–	percent of control	100%
COc1ccc(F)cc1C(=O)NCc1ccc(-c2nn([C@@H](C)C(F)(F)F)c(N)c2C(N)=O)cc1	CDK2 with cyclin A1	kinase activity, inhibitor, HotSpot radiometric	–	100 nM, added: ATP 10 µM	–	remaining activity	79.9 ± 2.1%
CC(C)=CCc1c(O)c(CC=C(C)C)c2oc3c(O)cccc3c(=O)c2c1O	Cyclin-dependent kinase 2, with cyclin E1 (CDK2, Homo sapiens, UniProt P24941)	kinase activity, inhibitor	–	concentration not given	–	inhibition	inactive
Cc1ncsc1-c1ccc([C@H](C)NC(=O)[C@@H]2C[C@@H](O)CN2C(=O)[C@@H](NC(=O)CCCCCCCCC(=O)N(CCO)CCCOc2ccc3c(Nc4cc(CC(=O)Nc5cccc(F)c5)[nH]n4)ncnc3c2)C(C)(C)C)cc1	CDK2	degradation, Western blot	PC-3 and HPAF-II	1 µM, 24 h	–	protein level	no effect
Cc1n[nH]c2ccc3nc(-c4ccc(C(=O)NCCN(C)C)cc4F)c4c(c3c12)CCCC4	CDK2	KINOMEscan	–	concentration not given	–	remaining binding	100%
CC[C@@H]1[C@H](F)C(=O)N[C@@H]1COc1nccc2cc(C(N)=O)c(OC)cc12	CDK2	ATP-site probe binding, ActivX profiling	THP-1 cell lysate	0.01 mM, Lys1 site	–	inhibition	1.9%
CC(=O)Nc1c(N)nc(SCC(=O)NN)[nH]c1=O	CDK2 with cyclin A2	kinase activity	–	1000 nM	–	remaining activity	27%
C=CC(=O)N1CCC([C@@H]2CCNc3c(C(N)=O)c(-c4ccc(Oc5ccccc5)cc4)nn32)CC1	CDK2 with cyclin A1	kinase activity, inhibitor, HotSpot radiometric	–	100 nM, added: ATP 10 µM	–	remaining activity	96.5 ± 2.6%
CC(=O)Nc1c(N)nc(SCC(=O)N/N=C/c2ccc([N+](=O)[O-])cc2)[nH]c1=O	CDK2 with cyclin A2	kinase activity	–	1 nM	–	remaining activity	96%
C=CC(=O)N1CCC(COCC(=O)N2CCN(c3nc(-c4cnc(N)nc4C(F)F)nc(N4CCOC[C@@H]4C)n3)CC2)CC1	CDK2	KINOMEscan	–	1 µM	relative to: DMSO control	remaining binding	100%
